Experimental data pooled from the literature.
A part holds a random share of what one study measured.

Study 1
Target: Sal-like protein 4, full length isoform A (SALL4, Homo sapiens, UniProt Q9UJQ4, residues 1-1053)
Sequence of UniProt Q9UJQ4 (whole entry, looked up): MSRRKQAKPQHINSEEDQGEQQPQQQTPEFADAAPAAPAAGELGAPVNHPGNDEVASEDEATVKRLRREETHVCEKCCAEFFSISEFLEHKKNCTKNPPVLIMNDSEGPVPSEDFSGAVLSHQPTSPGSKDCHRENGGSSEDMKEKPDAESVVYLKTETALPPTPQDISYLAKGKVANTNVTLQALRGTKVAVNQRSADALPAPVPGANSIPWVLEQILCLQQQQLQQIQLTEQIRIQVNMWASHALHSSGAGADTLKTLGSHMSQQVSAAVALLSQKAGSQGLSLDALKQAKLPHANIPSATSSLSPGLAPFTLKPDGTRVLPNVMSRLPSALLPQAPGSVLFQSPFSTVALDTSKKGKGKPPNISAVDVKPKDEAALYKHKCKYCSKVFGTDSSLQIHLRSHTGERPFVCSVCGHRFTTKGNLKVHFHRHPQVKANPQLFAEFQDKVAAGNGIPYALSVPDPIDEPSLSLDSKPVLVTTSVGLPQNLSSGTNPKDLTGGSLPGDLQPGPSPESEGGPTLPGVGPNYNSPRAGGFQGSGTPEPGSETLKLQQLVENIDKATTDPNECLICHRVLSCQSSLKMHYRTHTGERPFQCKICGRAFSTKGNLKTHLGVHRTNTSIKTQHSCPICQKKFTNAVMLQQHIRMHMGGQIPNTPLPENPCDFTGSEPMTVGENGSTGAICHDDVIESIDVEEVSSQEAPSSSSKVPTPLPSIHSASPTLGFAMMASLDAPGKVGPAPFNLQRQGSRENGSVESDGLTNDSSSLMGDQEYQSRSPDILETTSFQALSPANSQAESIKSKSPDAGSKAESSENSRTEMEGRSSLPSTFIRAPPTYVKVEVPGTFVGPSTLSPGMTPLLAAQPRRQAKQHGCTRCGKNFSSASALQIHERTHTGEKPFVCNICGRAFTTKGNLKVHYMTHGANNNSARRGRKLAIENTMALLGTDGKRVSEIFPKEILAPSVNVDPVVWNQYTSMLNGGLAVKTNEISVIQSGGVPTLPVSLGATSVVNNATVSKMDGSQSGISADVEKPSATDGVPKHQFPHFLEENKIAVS
Technique: universal PBM
Molecule type: double-stranded DNA, one strand shown
Medium: in vitro
Concentration: 600 nM
Notes: 8-mer, flanks averaged, mean of replicates
Reading: higher = stronger binding
Quantity: E-score
ACTCATCG: 0.086
AGTTTTTA: 0.287
GTTCGGTA: 0.0244
AACGAGCG: -0.018
GCTTTCCC: -0.27
AGCGACGA: -0.1
AATGTCAG: 0.0759
ACCTACCG: -0.136
CCTCGAGG: -0.149
ATACCCAT: 0.142
CGACGCGA: -0.303

Study 2
Target: PABPC1L2, full length, GST fusion (mouse, UniProt A0ABA7IW68)
Technique: RNAcompete
Molecule type: RNA
Medium: in vitro
Concentration: 20 nM
Notes: 7-mer, probes averaged, single round
Relative to: mean of 7-mers
Reading: higher = stronger binding
Quantity: 7-mer Z-score
Target sequence (chain): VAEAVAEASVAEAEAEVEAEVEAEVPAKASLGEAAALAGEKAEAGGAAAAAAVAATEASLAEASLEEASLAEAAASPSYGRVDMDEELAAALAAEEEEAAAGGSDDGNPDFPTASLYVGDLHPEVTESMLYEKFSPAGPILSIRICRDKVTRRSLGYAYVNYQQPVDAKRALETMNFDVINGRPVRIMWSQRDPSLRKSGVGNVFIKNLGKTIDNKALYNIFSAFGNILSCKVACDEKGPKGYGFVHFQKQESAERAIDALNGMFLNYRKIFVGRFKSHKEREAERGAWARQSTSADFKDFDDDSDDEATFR
ACUUGCU: -0.306
CAAGACG: -0.00652
UACGUCC: -0.344
GGUCAAU: -0.0174
CAAAUAG: 0.327
GUAUGGA: 0.0352
GUUUGAU: -0.378
ACCCUAU: -0.277
GGUGAUU: 0.0424

Study 3
Target: TATA-box-binding protein 1 (TBP1, Arabidopsis thaliana, UniProt P28147, residues 1-200, full length assumed)
Technique: protein-binding microarray
Molecule type: double-stranded DNA, one strand shown
Medium: in vitro
Concentration: not given
Notes: k-mer, scored over probes, only values ≥0.25
Reading: higher = stronger binding
Quantity: E-score
Target sequence (chain): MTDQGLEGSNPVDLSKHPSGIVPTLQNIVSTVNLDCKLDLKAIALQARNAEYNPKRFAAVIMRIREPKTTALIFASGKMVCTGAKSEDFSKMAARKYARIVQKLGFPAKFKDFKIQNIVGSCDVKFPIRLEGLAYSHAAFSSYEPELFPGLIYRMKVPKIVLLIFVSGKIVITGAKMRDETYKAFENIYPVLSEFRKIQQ
GTTCTTA: 0.252
TAATATA: 0.469
TATCTAA: 0.325
AATATGT: 0.323
CTATTTA: 0.407
TAAAATA: 0.387
CGTTATA: 0.386

Mixed results
PhoQ, residues 284 288 289 292 302 303 NLALSC  fold induction (PhoP, residues 12 14 15 18 19 NMSSL (Escherichia coli, UniProt P23836); Sort-seq, item: YFP reporter; E. coli; PhoQ-PhoP variant library, together with: 10 µM Mg2+; relative to: high Mg2+ state, higher = stronger signaling): 1.17
